Measurements pooled from the literature.
Parts stem from different laboratories: compare values within a part only.

Set 1
Target: Interferon regulatory factor 7, full length, phosphomimetic (IRF7, Homo sapiens, UniProt Q92985, residues 1-503, S471D/S472D/S475D/S476D/S477D/S483D/S484D/S487D)
Chain of UniProt Q92985 (whole entry, unmodified, looked up): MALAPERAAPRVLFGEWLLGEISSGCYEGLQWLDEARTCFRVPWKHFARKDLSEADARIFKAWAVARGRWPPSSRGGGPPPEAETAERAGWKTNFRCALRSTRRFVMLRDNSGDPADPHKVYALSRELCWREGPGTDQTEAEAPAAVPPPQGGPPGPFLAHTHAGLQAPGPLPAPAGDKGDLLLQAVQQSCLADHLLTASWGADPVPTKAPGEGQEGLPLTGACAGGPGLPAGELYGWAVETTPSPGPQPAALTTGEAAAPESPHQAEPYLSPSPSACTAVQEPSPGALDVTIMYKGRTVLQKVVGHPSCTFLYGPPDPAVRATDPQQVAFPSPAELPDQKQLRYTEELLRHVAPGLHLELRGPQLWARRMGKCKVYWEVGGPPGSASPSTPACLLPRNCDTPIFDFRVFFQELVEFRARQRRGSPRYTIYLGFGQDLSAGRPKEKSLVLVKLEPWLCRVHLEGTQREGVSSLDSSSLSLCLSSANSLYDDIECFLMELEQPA
Technique: protein-binding microarray
Form: double-stranded DNA, one strand shown
Sample: in vitro
Concentration: 2200 nM top
Notes: 60-bp whole probe
Added: salmon DNA 0.4 mg/ml
Reference: random background probes
Reading: higher = stronger binding
Constant ends, left off below: GCCTAGCAC … GTCTTGATTCGCTTGACGCTGCTG
Oligonucleotide	fitted relative affinity
CACGATCTCAGACTGGAGACGTGCTAG	0.455 z-score
GACGCTTCCGGTTTCGGGACGTGCTAG	6.07 z-score
GACGGTCTCCTTATCCTTACGTGCTAG	1.4 z-score
GACGGACTGGGTATCGGGTCGTGCTAG	-0.539 z-score
GAGGGACTGCTTATCCTGACGTGCTAG	-0.0937 z-score
GACGAACTGGGGTTTTGAGACGTGCTA	0.294 z-score
GACGGACTGGACCATCGGGACGTGCTA	-1.01 z-score
GACGAACTGGGGACTTGAGACGTGCTA	0.122 z-score
TTAGGTCTCCTATTCCTTTAGTGCTAG	1.1 z-score
GACCAACTGAGTTTCGAGACGTGCTAG	2.23 z-score
CTCCCTTTCAGTTTTCCTCTGTGCTAG	4.61 z-score
TTCGGTTTCGGTTCCGGTTAGTGCTAG	13.7 z-score
TTAGGACCGGGGACTGGGTTAGTGCTA	-1.01 z-score

Set 2
Target: Phosphate system positive regulatory protein PHO4, full length, GST-tagged (PHO4, Saccharomyces cerevisiae, UniProt P07270, residues 1-312)
Technique: competition protein-binding microarray
Form: double-stranded DNA, one strand shown
Sample: in vitro
Concentration: 2 µM
Notes: whole 60-bp probe, lowest competitor level
Added: Cbf1 competitor, 0.05 µM
Reading: higher = stronger binding
Target sequence (chain): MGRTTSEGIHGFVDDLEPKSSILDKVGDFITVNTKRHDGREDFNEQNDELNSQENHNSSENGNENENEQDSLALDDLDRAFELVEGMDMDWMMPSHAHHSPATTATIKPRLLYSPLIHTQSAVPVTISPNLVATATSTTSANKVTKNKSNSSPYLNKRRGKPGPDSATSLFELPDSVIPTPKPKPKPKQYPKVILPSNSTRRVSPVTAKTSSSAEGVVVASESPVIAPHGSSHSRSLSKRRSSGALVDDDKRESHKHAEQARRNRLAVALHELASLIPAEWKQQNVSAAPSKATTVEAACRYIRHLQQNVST
Oligonucleotide	fluorescence intensity [a.u.]
AAGTCATAGAATCACCACGTGAAAAAAAAAAAAAAAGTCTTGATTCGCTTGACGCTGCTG	8850
CATACCCAACCTTAACACGTGTTTTAAGATATTTGTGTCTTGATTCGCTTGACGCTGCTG	21900
TGTTCTCGACGACAACTCGTGTCGGTTCCATGCTATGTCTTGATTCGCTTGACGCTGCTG	8240
TGCACTTATTATTACTACGTGGTGAATTTTCTCTTTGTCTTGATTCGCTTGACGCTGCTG	7180
CCTTGTCCAATTCAACACGCTCGATGAAAAAAATAAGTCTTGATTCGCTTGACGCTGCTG	6640
AAATTACTAAGTTTTCACGTGTCATACCCCGTATGAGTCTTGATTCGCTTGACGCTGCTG	16600
AAGTACTATCATGGGCGCATGCCAGGTACCTAAGCCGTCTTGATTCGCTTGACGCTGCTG	7500

Set 3
Target: Sal-like protein 4, full length isoform B (SALL4, Homo sapiens, UniProt Q9UJQ4-2, residues 1-616)
Technique: universal PBM
Form: double-stranded DNA, one strand shown
Sample: in vitro
Concentration: not given
Notes: 8-mer, flanks averaged, mean of replicates
Reading: higher = stronger binding
Residues (chain): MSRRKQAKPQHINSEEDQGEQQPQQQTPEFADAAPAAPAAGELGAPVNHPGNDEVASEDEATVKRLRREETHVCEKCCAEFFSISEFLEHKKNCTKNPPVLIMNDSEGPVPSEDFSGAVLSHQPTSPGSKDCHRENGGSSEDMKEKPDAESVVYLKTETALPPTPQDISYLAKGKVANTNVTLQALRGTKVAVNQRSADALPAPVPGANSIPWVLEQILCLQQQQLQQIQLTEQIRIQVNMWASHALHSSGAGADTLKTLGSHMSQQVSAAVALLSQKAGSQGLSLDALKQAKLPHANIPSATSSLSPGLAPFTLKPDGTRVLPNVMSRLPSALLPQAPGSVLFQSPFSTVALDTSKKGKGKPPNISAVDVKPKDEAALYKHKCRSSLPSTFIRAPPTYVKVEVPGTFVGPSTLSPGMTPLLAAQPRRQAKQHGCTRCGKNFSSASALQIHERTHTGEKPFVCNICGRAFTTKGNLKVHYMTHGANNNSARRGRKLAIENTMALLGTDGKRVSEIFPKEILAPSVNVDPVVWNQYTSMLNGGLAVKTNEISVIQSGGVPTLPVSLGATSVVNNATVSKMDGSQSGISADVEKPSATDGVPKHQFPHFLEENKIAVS
Oligonucleotide	E-score
ACGCGCGT	0.125
AGCATGAC	-0.104
CTCACCAG	-0.187
CCCGGCGA	-0.387
CCCGGCGC	-0.406
CATGTTCG	0.0238
AAAAACTC	0.14
CGGACCTA	-0.13
ACACAAAC	0.116
AGCTAAAC	-0.115
GACTCCGC	-0.293
CACAGATC	-0.149

Other studies, line by line
Substance	target	test	test system	conditions	scale	measurement	result
PhoQ, residues 284 288 289 292 302 303 SCEHLI	PhoP, residues 12 14 15 18 19 NMSFL (Escherichia coli, UniProt P23836)	Sort-seq, measured: YFP reporter	E. coli	PhoQ-PhoP variant library, added: 10 µM Mg2+	reference: high Mg2+ state, higher = stronger signaling	fold induction	16.8

Excerpt of the above (set 3):
Oligonucleotide	E-score
CCCGGCGC	-0.406
CACAGATC	-0.149
AGCTAAAC	-0.115
ACGCGCGT	0.125
AAAAACTC	0.14
ACACAAAC	0.116
